Assay results of several laboratories.
Numbers after ± are the reported error.
Isochorismatase domain-containing protein 1: Isochorismatase domain-containing protein 1 (Homo sapiens, UniProt Q96CN7)
UniProt Q96CN7, sequence (whole entry, looked up): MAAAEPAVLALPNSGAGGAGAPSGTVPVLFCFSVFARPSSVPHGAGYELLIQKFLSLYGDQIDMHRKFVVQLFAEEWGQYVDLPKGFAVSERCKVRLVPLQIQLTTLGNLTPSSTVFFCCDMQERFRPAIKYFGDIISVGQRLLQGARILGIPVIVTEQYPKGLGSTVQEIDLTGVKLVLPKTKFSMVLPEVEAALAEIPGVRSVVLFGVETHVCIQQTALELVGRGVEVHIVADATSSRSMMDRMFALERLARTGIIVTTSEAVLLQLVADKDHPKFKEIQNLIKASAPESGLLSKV
UniProt Q9Y2U5, sequence (whole entry, looked up): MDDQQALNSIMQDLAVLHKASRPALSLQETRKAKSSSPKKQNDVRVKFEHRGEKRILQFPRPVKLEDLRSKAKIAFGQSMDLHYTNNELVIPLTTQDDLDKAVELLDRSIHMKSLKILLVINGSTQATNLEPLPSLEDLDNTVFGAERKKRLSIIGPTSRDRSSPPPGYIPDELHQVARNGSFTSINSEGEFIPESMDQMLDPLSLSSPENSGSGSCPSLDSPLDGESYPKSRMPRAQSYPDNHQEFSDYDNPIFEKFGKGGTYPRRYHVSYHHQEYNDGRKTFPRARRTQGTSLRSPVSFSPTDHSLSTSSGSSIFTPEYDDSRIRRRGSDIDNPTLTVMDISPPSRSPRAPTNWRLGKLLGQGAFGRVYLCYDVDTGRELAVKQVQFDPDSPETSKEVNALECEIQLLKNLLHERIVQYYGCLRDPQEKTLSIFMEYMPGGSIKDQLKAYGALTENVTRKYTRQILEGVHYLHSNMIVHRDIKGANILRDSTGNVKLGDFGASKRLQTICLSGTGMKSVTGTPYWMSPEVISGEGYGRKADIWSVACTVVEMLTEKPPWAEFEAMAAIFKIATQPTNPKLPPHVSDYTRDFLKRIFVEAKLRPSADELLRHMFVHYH
UniProt O00478, sequence (whole entry, unmodified, looked up): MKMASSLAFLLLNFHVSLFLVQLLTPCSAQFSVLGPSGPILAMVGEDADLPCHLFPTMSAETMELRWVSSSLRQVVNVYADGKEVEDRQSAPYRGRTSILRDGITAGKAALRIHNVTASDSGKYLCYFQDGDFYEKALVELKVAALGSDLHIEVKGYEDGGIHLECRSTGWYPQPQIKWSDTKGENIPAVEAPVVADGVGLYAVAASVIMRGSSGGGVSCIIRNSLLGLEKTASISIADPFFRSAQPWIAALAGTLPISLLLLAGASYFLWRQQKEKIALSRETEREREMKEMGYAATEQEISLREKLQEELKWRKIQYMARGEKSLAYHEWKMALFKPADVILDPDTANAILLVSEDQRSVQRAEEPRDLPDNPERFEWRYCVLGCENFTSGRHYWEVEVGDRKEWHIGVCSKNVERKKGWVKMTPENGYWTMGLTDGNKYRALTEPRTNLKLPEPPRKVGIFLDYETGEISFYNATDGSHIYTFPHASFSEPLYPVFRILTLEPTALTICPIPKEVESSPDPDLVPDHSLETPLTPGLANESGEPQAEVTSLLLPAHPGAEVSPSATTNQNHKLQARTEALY
UniProt Q06187, sequence (whole entry, looked up): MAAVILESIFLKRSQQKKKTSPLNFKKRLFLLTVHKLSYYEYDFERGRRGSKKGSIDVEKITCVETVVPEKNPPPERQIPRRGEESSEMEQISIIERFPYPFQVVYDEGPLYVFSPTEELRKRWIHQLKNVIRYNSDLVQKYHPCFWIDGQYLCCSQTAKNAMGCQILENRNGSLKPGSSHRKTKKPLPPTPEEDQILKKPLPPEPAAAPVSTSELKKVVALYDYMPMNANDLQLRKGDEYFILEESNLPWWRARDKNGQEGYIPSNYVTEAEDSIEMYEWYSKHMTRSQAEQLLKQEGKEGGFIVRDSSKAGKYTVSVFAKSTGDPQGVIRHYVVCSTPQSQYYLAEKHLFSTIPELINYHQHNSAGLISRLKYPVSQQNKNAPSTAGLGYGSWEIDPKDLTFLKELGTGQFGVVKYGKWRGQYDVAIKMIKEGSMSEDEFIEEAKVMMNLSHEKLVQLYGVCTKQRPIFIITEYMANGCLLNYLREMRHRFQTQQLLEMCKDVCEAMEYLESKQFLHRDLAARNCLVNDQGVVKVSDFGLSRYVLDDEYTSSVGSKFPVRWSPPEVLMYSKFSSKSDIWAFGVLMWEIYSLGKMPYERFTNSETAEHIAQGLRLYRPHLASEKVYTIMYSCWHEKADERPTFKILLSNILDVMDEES
UniProt Q9UBX5, sequence (whole entry, looked up): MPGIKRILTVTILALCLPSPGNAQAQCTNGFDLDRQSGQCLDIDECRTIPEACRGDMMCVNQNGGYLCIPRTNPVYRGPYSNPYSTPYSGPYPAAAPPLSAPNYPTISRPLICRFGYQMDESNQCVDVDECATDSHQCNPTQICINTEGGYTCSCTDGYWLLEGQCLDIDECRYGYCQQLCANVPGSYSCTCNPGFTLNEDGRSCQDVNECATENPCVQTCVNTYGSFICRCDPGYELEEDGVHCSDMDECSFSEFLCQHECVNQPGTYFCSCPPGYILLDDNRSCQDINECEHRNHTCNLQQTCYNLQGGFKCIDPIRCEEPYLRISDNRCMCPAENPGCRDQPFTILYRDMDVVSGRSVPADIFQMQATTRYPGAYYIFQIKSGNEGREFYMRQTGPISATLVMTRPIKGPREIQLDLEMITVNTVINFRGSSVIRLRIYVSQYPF
UniProt P30988, sequence (whole entry, looked up): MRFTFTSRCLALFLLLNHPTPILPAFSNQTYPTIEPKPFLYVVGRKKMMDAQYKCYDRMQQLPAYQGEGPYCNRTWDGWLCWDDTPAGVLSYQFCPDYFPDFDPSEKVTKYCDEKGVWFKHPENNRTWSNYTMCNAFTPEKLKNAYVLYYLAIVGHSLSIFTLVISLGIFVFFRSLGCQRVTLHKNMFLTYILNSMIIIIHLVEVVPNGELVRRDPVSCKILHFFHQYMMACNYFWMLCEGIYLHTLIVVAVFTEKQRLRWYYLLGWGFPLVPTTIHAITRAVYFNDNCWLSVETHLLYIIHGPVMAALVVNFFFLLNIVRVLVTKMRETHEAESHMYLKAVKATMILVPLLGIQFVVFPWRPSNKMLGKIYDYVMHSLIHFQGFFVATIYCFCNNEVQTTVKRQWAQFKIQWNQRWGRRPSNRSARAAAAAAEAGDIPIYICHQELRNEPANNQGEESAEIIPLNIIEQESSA
UniProt P51451, sequence (whole entry, looked up): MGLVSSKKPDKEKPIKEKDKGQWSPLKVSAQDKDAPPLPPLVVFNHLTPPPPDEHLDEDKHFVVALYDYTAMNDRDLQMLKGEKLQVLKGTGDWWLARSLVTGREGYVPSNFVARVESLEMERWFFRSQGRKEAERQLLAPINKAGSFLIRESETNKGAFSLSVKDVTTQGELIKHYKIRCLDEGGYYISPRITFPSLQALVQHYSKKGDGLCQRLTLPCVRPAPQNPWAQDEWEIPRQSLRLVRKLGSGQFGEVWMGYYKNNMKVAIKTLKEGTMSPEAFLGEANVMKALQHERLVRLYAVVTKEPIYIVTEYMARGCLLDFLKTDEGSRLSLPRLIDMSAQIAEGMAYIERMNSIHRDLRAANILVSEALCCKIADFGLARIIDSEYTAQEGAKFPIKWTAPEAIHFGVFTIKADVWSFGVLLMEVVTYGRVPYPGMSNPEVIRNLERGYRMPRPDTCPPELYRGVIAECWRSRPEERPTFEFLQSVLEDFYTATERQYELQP
UniProt O60895, sequence (whole entry, looked up): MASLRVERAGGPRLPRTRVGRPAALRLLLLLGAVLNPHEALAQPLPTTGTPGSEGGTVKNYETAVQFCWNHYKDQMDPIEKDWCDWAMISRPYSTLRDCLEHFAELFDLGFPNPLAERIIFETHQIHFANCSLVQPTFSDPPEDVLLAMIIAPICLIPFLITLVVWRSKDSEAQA
UniProt P07339, sequence (whole entry, looked up): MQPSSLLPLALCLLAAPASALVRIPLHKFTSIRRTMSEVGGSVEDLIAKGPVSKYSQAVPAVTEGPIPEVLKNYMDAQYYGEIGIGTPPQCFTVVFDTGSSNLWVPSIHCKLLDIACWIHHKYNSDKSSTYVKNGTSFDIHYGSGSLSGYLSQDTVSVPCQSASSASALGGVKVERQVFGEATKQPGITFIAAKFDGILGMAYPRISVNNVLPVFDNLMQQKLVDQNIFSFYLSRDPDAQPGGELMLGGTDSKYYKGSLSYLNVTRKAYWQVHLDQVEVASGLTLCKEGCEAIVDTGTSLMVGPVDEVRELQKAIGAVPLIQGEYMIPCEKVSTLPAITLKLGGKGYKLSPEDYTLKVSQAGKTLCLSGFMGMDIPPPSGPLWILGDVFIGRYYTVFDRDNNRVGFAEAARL

C/C(=C\COP(=O)(O)OP(=O)(O)O)CO
Kd (Butyrophilin subfamily 3 member A3 (BTN3A3, Homo sapiens, UniProt O00478, R381H)): 0.78 µM

Nc1nc2c(ncn2[C@@H]2O[C@@H]3COP(=O)(O)O[C@H]4[C@@H](O)[C@H](n5cnc6c(=O)[nH]c(N)nc65)O[C@@H]4COP(=O)(O)O[C@H]3[C@H]2O)c(=O)[nH]1
Kd (Cell cycle histidine kinase CckA, CA domain (Caulobacter vibrioides, UniProt Q9X688); isothermal titration calorimetry; Caulobacter crescentus; 12 °C, added: ADP 5 mM): 22 µM

CC[C@H](C)[C@H](NC(=O)[C@H](CC(C)C)NC(=O)[C@H](Cc1ccc(OP(=O)(O)O)cc1)NC(=O)[C@H](CCC(=O)O)NC(=O)[C@H](CC(=O)O)NC(=O)[C@H](C)NC(=O)[C@H](CC(=O)O)NC(=O)[C@@H](NC(=O)[C@@H](NC(=O)[C@H](CC(=O)O)NC(=O)[C@H](CC(=O)O)NC(=O)[C@H](CCSC)NC(=O)c1ccc2c(c1)C(=O)OC21c2ccc(N(C)C)cc2Oc2cc(N(C)C)ccc21)C(C)C)C(C)C)C(=O)N1CCC[C@H]1C(=O)N[C@@H](CCC(N)=O)C(=O)N[C@@H](CCC(N)=O)C(=O)NCC(=O)N[C@@H](Cc1ccccc1)C(=O)N[C@@H](CC(=O)O)C(=O)O
Kd (Tyrosine-protein kinase Blk, SH2 domain (BLK, Homo sapiens, UniProt P51451); binding): 0.658 µM

COc1c(O[C@@H]2O[C@H](CO)[C@@H](O)[C@H](O)[C@H]2O)c(C)cc2c1C(=O)c1c(O)cccc1C2=O
cell viability (HK-2 co-cultured with HepaRG; MTT; 266.67 µM, 48 h; reference: untreated control): 44.1 ± 2.22%

CC(C)C[C@H](NC(=O)[C@H](CCC(=O)O)NC(=O)[C@H](CCC(N)=O)NC(=O)[C@H](CO)NC(=O)CCCCCNC(=S)Nc1ccc2c(c1)C(=O)OC21c2ccc(O)cc2Oc2cc(O)ccc21)C(=O)N[C@@H](Cc1c[nH]cn1)C(=O)N[C@@H](CCCCN)C(=O)N[C@@H](CC(C)C)C(=O)N[C@@H](CCC(N)=O)C(=O)N[C@H](C(=O)N[C@@H](Cc1ccc(O)cc1)C(=O)N1CCC[C@H]1C(=O)N[C@@H](CCCNC(=N)N)C(=O)N[C@H](C(=O)N[C@@H](CC(N)=O)C(=O)N[C@H](C(=O)NCC(=O)N[C@@H](CO)C(=O)NCC(=O)N[C@H](C(=O)N1CCC[C@H]1C(N)=O)[C@@H](C)O)[C@@H](C)O)[C@@H](C)O)[C@@H](C)O
Kd (Amylin receptor AMY2; CALCR/RAMP2, extracellular domains (Homo sapiens, UniProt O60895+P30988); peptide binding, fluorescence polarization; pH 7.4, MBP-CTR ECD with 100 µM RAMP2 ECD): 1.7 µM

CCCN1CCN(c2ccc(-c3cncc(Cl)c3N3CCC4(CCNC4=O)CC3)cc2)CC1
Kd (MED11 human; SILAC competition; LS174T-L5 lysate): 0.008 µM

Nc1ccccc1NC(=O)c1ccc(CNc2nccc(-c3cccnc3)n2)cc1
Kd (Isochorismatase domain-containing protein 1; inhibitor, competition pulldown; SW620 and MV4-11 lysate; 1 h): > 30.2 µM

O=C(N[C@H]1COC(=O)[C@@H](NC(=O)c2cccc(O)c2[O-])COC(=O)[C@@H](NC(=O)c2cccc(O)c2[O-])COC1=O)c1cccc(O)c1[O-].[Fe+3]
Kd (uncharacterized protein (Bordetella pertussis, UniProt Q7VXW9); siderophore binding, fluorescence quenching titration; pH 6.5, room temperature, 100 mM NaCl, added: ferric siderophore): ~1 µM

COc1ccc(F)cc1C(=O)NCc1ccc(-c2nn([C@@H](C)C(F)(F)F)c(N)c2C(N)=O)cc1
Kd (Tyrosine-protein kinase BTK (BTK, Homo sapiens, UniProt Q06187); surface plasmon resonance): 0.001 µM

CCN(CC)Cc1ccc2cc(COC(=O)Nc3ccc(C(=O)NO)cc3)ccc2c1
Kd (Isochorismatase domain-containing protein 1; inhibitor, competition pulldown; SW620 and MV4-11 lysate; 1 h): > 30.2 µM

N=C(N)NCCC[C@H](N)C(=O)O
Kd (acetylcholine receptor, Rana temporaria; channel block, voltage clamp fluctuation; endplate; reduced Na+ mixture): ~24000 µM

CC(=O)Nc1ccc(C(=O)Nc2ccccc2N)cc1
Kd (Isochorismatase domain-containing protein 1; inhibitor, competition pulldown; SW620 and MV4-11 lysate; 1 h): > 30.2 µM

Cc1cc2nc3c(=O)[nH]c(=O)nc-3n(C[C@H](O)[C@H](O)[C@H](O)COP(=O)(O)OP(=O)(O)OC[C@H]3O[C@@H](n4cnc5c(N)ncnc54)[C@H](O)[C@@H]3O)c2cc1C
Kd (Fibulin-5 (FBLN5, Homo sapiens, UniProt Q9UBX5); binding, MS pulldown competition; SW-620 cell lysate): 4.74 µM

COc1cc2c(c(OC)c1OC)C(=O)c1c(cc(C)c(O)c1OC)C2=O
viability (HK-2 co-cultured with HepaRG; MTT; 266.67 µM, 48 h; reference: untreated control): 11.5 ± 3.1%

CC(C)C[C@H](NC(=O)C[C@H](O)[C@H](CC(C)C)NC(=O)[C@H](Cc1c[nH]cn1)NC(=O)CNC(=O)[C@@H](NC(=O)[C@H](C)NC(=O)[C@H](Cc1c[nH]c2ccccc12)NC(=O)[C@H](CCC(N)=O)NC(=O)[C@@H](Cc1ccccc1)NC(=O)COCCOCCNC(=O)CCC(C(=O)O)N1CCN(CC(=O)O)CCN(CC(=O)O)CCN(CC(=O)O)CC1)C(C)C)C(N)=O (stereo partly drawn) [lutetium-177 labelled]
tissue uptake (female BALB/c nu/nu mice, bladder; intravenous, 100 pmol, 2 h, added: PA 300 µg): 56 ± 29 %ID/g

CC(C)CC(=O)N[C@H](C(=O)N[C@H](C(=O)N[C@@H](CC(C)C)[C@@H](O)CC(=O)N[C@@H](C)C(=O)N[C@@H](CC(C)C)[C@@H](O)CC(=O)NCCCC[C@H](NC(=O)CCOCCOCCNC(=O)CN1CCN(CC(=O)O)CCN(CC(=O)O)CC1)C(=O)O)C(C)C)C(C)C
Kd (Cathepsin D (CTSD, Homo sapiens, UniProt P07339); binding, surface plasmon resonance): 0.645 µM

O=C(/C=C/c1cccc(S(=O)(=O)Nc2ccccc2)c1)NO
Kd (Isochorismatase domain-containing protein 1; inhibitor, competition pulldown; SW620 and MV4-11 lysate; 1 h): > 30.2 µM

CN1CCN(c2ccc(Nc3ncc4cc(C#N)c(=O)n(C5CCCC5)c4n3)cc2)CC1
IC50 (Mitogen-activated protein kinase kinase kinase 2 (MAP3K2, Homo sapiens, UniProt Q9Y2U5)): 2.53 µM

A few entries again:
COc1c(O[C@@H]2O[C@H](CO)[C@@H](O)[C@H](O)[C@H]2O)c(C)cc2c1C(=O)c1c(O)cccc1C2=O
cell viability (HK-2 co-cultured with HepaRG; MTT; 266.67 µM, 48 h; reference: untreated control): 44.1 ± 2.22%
